Measurements of several laboratories.
Numbered parts are unrelated; each lists some results of a single study. Changes are numbered by the printed parent chain.

Set 1 — target: CCNB2, cyclin fold, Cln2 fusion (human); method: yeast growth competition, sequencing; sample: yeast; notes: weak parent motif; baseline: not given; direction: higher = stronger binding
Parent: SLBP docking peptide (human); ARYKRKLLINDFG; partner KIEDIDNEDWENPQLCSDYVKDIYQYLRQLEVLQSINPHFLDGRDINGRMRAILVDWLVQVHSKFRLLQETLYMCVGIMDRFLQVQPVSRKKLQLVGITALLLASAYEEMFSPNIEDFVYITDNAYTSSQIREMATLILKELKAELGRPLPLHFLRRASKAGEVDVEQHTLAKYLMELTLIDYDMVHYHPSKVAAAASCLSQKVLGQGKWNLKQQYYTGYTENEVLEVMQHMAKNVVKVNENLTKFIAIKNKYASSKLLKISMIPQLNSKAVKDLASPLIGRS
`R2D`: “normalised enrichment score” 0.75.
For `F12K`, “normalised enrichment score” read 0.133.
Under “normalised enrichment score”, `Y3S` is recorded as 1.15.
For `D11M`, “normalised enrichment score” read 1.04.
`L8M`: “normalised enrichment score” 0.766.
`R5K` — result for “normalised enrichment score”: 1.04.
`F12N`: “normalised enrichment score” 1.56.
`G13C`: “normalised enrichment score” 0.587.
Under “normalised enrichment score”, `G13N` is recorded as 0.415.
Under “normalised enrichment score”, `G13E` is recorded as 0.4.
`R2P`: “normalised enrichment score” 0.422.
`R5I` — result for “normalised enrichment score”: 0.371.
`R5A` — result for “normalised enrichment score”: 0.474.
For `K4R`, “normalised enrichment score” read 0.668.
For `K6G`, “normalised enrichment score” read 0.767.
`F12V` — result for “normalised enrichment score”: 0.399.

Set 2 — target: UBE2L6 UBC core domain (UniProt O14933); method: yeast two-hybrid; sample: yeast; notes: mostly zero background; baseline: not given; direction: higher = stronger interaction
B1: TRIM10 RING domain (UniProt Q9UDY6); chain SVTSLADEVNCPICQGTLREPVTIDCGHNFCRACLTRYCEIPGPDLEESPTCPLCKEPFRPGSFRP
B2: NSMCE1 RING domain (UniProt Q8WV22); chain RETYPDAVKICNICHSLLIQGQSCETCGIRMHLPCVAKYFQSNAEPRCPHCNDYWPHEIPKV
B3: TRIM52 RING domain (UniProt Q96A61); chain PMQTLQEEAVCAICLDYFKDPVSISCGHNFCRGCVTQLWSKEDEEDQNEEEDEWEEEEDEEAV
B4: RNF5 RING domain (UniProt Q99942); chain ERGGAGATFECNICLETAREAVVSVCGHLYCWPCLHQWLETRPERQECPVCKAGISREKVVP
B5: PHF7 RING domain (UniProt Q9BWX1); chain IQHGHVGEESCILCCEDLSQQSVENIQSPCCSQAIYHRKCIQKYAHTSAKHFFKCPQCNNRKEFPQEML
B6: RNF112 RING domain (UniProt Q9ULX5); chain QPMAPRELPTCSICLERLRDPISLDCGHDFCIRCFSTHRLPGCEPPCCPECRKICKQKRGLR
B7: RNF149 RING domain (UniProt Q8NC42); chain EKGIDVDAENCAVCIENFKVKDIIRILPCKHIFHRICIDPWLLDHRTCPMCKLDVIKALGYW
B8: TRIM55 RING domain (UniProt Q9BYV6); chain TMDNLEKQLICPICLEMFTKPVVILPCQHNLCRKCASDIFQASNPYLPTRGGTTMASGGRFRCPSCRHEVVLDRHG
Residues (chain): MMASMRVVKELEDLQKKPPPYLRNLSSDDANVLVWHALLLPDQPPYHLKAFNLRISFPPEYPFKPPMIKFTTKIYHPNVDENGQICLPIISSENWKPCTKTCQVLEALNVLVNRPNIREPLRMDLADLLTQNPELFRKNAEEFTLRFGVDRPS
`B1 (TRIM10 RING domain)` — result for “lacZ reporter activity”: 0.
`B2 (NSMCE1 RING domain)` — result for “lacZ reporter activity”: 0.
For `B3 (TRIM52 RING domain)`, “lacZ reporter activity” read 0.
Under “lacZ reporter activity”, `B4 (RNF5 RING domain)` is recorded as 0.
`B5 (PHF7 RING domain)` — result for “lacZ reporter activity”: 0.
Under “lacZ reporter activity”, `B6 (RNF112 RING domain)` is recorded as 0.
Under “lacZ reporter activity”, `B7 (RNF149 RING domain)` is recorded as 0.
`B8 (TRIM55 RING domain)` — result for “lacZ reporter activity”: 0.

Set 3 — method: RNA Bind-n-Seq; form: RNA; sample: in vitro; concentration: 200 nM; notes: whole 134-nt RNA, ends assumed; together with: 150 mM LiCl; baseline: input library; direction: higher = stronger binding; each molecule: 7-deaza-guanosine replaces G
Target: Fragile X messenger ribonucleoprotein 1, C-terminal low-complexity region (Fmr1, Mus musculus, UniProt P35922)
Constant ends, left off below: GGGAGUUCUACAGUCCGACGAUC … UGGAAUUCUCGGGUGUCAAGG
With `CACAGACAACACACACCCACACAGACACAGAGGGAAGGGGUUGGGAUGGGGACAGGGUGCACAGCAGGGCGGGGUAGGACCCCAGCCCCU` the log2 enrichment was 0.103.
`AGUCCUGUGCUACACAUCGUAUGUACCGAAUCGGGGAGGGGAAAAAAAGGGGUGGGGAAAGUAUUAUGUUACGCCGUUCGGAUCUGCACU` gave a log2 enrichment of -0.0153.
With `AGUCCUGUGCUACACAUCGUAUGUACCGAAUCGGGAAAAAGGGAAAGGGAAAAAGGGAAAGUAUUAUGUUACGCCGUUCGGAUCUGCACU` the log2 enrichment was -0.762.
For `UCCUCAAGUCCUGUGCUACACAUCGUAUGUACCGAAUCGGCGGGCGGCGGGAAAGUAUUAUGUUACGCCGUUCGGAUCUGCACUUCCAGC`, the log2 enrichment was 1.08.
For `ACCCUGCAGGUGGGCAUCUUUGGGAAGUGGGGCAAGGGGGGGAUAGGGAGGGGGGUAACACUUUGGGAACAGGUGGUCCCAGGUCGUUUC`, the log2 enrichment was 0.974.
`UGGGAGGUGGAUUUUGUUUAUUUUUUUAGCUCAUUUCCAGGGGUGGGAAUUUUAUUUUAAUAUGUGUCAUGAAUAAAGUUGUUUUUGAAA` has a log2 enrichment of 0.00263.
`UGCGGGCGGCUGAGACGCCGCCUGCCUGGCACCUAGGAGCGCAGCGGAGCCCCGACACCGCCGCCGCCGCCAUGGAGUCCGAGACCGAAC` gave a log2 enrichment of 0.0503.
`AAGUCCUGUGCUACACAUCGUAUGUACCGAAUCGGAAAAAGGAAAGGUUUUUUUGGAAAGUAUUAUGUUACGCCGUUCGGAUCUGCACUU` gave a log2 enrichment of -2.66.

Set 4 — method: DHFR PCA, deep sequencing; sample: yeast; together with: (+)-ABA 710 µM; baseline: wild-type fitted maximum; direction: higher = stronger binding
Target: ABI1, truncated, D143A, DHFR fusion (Arabidopsis thaliana)
Notes: methotrexate growth selection, single substitutions
Parent: PYL1, truncated, DHFR fusion (Arabidopsis thaliana); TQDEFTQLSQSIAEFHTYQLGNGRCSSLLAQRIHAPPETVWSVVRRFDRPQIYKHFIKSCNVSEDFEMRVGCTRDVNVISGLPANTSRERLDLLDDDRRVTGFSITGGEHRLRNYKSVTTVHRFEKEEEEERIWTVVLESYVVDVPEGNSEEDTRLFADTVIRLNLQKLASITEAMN
`T119N`: “relative binding score” 43.3%.
For `F103E`, “relative binding score” read -6.44%.
For `N149H`, “relative binding score” read 64.1%.
`R163E`: “relative binding score” 87.5%.
`T86N`: “relative binding score” 109%.
For `F56R`, “relative binding score” read 11.8%.
Under “relative binding score”, `C60K` is recorded as -0.0847%.
Under “relative binding score”, `T120G` is recorded as 49.1%.
`V145H` — result for “relative binding score”: 67.6%.
`Y18A`: “relative binding score” 98.8%.
Under “relative binding score”, `L28I` is recorded as 97.3%.
For `A30F`, “relative binding score” read 101%.
`E152G`: “relative binding score” 98.1%.
For `Y53I`, “relative binding score” read 73.7%.
`M176N` — result for “relative binding score”: 101%.
For `R45T`, “relative binding score” read 66.8%.

A few entries again (set 2):
For `B3 (TRIM52 RING domain)`, “lacZ reporter activity” read 0.
Under “lacZ reporter activity”, `B4 (RNF5 RING domain)` is recorded as 0.
`B5 (PHF7 RING domain)` — result for “lacZ reporter activity”: 0.
Under “lacZ reporter activity”, `B6 (RNF112 RING domain)` is recorded as 0.
Under “lacZ reporter activity”, `B7 (RNF149 RING domain)` is recorded as 0.
